Measured values gathered from unrelated publications.
Each numbered part is a random draw from the data of one study; scales do not carry over between parts. Several values in a cell are separate wells, animals, samples, runs or records.
UniProt Q5S007, sequence (whole entry, looked up): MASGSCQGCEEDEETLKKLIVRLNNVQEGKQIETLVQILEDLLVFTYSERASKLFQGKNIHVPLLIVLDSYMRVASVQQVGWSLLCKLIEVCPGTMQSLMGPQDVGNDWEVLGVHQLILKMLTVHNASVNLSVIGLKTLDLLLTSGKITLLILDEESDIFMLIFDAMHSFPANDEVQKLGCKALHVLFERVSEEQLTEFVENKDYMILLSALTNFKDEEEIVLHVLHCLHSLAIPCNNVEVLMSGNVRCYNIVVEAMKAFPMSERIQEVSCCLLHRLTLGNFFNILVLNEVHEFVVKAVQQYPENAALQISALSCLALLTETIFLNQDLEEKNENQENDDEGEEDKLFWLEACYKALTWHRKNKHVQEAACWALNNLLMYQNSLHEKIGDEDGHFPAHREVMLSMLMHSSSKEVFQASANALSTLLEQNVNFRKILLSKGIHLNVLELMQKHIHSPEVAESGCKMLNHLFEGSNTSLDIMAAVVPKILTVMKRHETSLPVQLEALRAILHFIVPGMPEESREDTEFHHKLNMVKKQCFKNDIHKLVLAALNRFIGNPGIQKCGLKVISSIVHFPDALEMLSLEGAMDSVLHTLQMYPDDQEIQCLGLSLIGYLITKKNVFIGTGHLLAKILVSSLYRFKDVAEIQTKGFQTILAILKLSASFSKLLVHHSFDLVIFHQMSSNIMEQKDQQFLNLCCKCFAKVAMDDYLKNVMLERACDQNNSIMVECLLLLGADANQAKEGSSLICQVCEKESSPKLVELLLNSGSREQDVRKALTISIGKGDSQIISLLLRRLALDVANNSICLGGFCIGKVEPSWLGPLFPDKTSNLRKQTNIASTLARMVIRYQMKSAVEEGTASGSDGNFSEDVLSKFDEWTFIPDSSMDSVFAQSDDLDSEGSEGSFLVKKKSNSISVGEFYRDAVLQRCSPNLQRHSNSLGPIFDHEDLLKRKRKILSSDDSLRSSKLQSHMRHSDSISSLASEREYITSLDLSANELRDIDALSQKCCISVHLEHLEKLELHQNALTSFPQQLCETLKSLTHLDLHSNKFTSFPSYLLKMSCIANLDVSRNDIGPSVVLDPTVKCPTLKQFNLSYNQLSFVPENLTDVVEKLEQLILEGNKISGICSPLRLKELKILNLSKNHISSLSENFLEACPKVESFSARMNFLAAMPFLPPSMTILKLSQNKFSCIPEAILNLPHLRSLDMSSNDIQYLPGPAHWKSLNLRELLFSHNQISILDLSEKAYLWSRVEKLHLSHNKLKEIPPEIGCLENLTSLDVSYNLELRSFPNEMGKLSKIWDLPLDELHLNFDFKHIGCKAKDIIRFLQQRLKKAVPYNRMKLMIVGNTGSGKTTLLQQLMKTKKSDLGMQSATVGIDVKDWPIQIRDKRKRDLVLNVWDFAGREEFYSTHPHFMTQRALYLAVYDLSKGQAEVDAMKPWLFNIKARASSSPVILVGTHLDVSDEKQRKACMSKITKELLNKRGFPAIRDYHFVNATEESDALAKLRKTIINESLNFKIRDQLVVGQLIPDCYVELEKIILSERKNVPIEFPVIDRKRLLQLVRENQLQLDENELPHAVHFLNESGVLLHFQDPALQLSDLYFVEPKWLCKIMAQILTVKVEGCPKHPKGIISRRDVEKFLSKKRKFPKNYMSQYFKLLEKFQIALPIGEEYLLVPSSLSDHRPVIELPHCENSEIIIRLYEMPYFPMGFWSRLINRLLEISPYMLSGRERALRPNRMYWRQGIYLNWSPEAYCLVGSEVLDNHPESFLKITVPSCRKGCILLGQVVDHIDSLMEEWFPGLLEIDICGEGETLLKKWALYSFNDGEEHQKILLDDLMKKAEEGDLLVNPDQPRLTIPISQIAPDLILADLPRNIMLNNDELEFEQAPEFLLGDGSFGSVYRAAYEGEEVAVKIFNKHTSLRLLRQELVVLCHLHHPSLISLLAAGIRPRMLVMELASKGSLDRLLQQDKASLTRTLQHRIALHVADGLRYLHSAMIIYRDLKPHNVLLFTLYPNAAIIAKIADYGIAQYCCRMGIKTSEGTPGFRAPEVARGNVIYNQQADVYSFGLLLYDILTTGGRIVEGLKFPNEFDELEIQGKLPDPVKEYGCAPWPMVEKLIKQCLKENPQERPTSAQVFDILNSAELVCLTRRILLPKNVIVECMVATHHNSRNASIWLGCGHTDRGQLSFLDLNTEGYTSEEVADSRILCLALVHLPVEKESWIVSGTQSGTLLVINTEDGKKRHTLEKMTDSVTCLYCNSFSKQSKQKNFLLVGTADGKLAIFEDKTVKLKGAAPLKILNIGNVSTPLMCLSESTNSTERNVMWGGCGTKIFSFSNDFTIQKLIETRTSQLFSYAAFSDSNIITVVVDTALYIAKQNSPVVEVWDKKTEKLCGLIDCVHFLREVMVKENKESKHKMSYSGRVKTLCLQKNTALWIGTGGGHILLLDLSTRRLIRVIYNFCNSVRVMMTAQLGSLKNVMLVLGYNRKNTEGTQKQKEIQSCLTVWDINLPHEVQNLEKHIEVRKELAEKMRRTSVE
UniProt P22612, sequence (whole entry, looked up): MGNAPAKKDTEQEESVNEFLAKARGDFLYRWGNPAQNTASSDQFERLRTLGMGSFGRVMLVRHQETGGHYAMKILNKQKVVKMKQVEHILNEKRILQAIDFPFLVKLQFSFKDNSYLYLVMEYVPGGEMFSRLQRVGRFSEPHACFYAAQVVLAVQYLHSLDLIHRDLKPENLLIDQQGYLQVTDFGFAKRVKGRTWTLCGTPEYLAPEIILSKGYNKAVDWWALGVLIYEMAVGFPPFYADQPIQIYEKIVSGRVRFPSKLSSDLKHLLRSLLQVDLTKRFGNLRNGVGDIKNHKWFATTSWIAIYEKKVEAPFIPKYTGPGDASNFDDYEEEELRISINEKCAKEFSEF
UniProt P51955, sequence (whole entry, looked up): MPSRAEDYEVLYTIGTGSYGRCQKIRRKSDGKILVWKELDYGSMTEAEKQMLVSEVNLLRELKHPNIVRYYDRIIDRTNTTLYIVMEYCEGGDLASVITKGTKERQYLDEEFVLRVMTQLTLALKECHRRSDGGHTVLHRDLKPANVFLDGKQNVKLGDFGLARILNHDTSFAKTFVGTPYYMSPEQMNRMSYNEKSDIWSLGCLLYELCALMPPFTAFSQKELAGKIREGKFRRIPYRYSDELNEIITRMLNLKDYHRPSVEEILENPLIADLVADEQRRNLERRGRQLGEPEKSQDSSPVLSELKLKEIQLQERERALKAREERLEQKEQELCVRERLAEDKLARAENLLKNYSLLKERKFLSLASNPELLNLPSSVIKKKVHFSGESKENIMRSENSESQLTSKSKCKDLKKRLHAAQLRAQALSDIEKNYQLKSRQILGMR
UniProt Q00534, sequence (whole entry, looked up): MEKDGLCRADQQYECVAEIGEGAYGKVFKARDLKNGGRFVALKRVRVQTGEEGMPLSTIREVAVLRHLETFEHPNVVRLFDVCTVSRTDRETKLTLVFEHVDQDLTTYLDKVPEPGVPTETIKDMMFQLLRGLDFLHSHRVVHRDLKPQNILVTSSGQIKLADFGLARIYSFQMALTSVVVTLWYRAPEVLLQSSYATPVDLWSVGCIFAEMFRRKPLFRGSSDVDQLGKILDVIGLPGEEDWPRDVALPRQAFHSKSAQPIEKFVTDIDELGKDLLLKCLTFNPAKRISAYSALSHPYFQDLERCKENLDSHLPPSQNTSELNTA
UniProt O15146, sequence (whole entry, looked up): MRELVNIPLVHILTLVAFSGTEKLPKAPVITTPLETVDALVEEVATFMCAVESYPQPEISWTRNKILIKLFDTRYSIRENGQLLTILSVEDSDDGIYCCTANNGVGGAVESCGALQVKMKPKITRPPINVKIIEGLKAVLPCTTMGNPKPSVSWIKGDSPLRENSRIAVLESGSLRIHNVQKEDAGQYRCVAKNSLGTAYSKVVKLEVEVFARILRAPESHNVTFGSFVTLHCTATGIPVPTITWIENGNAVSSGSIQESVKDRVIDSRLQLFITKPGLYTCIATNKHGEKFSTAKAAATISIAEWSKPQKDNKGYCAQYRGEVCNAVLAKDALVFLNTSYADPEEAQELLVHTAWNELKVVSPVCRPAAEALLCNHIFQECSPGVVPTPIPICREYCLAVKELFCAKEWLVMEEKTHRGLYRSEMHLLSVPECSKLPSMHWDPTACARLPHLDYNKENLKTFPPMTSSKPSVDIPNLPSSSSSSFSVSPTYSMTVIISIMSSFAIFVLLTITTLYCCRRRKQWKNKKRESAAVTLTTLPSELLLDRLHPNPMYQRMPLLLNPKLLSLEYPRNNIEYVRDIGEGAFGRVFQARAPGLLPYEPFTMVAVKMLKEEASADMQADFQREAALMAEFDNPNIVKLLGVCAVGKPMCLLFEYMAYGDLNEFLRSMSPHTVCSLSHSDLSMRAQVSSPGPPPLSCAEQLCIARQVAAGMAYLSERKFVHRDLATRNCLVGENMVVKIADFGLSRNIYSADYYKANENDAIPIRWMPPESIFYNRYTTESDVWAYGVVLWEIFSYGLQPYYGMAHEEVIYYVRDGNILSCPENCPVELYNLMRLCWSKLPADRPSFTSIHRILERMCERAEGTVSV
UniProt Q16816, sequence (whole entry, looked up): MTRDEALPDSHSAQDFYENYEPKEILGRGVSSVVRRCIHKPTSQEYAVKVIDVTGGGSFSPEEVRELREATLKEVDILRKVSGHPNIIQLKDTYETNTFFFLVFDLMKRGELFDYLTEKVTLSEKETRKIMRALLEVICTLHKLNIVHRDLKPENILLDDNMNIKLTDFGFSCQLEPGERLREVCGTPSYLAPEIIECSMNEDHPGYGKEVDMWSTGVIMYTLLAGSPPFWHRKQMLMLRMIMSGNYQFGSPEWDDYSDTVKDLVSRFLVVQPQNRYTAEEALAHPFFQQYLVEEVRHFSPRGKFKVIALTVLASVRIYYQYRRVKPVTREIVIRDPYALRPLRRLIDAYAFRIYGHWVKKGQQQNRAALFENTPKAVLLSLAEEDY

Block 1 — cell line: mouse MPNST tumor cells; technique: high-content immunofluorescence imaging; item: nuclear SOX9; concentration: 10 µM; time: 12 h; setting: mean of 2 replicates; reference: DMSO control; direction: higher = more nuclear SOX9
SMILES	nuclear SOX9 intensity
COCCCOc1ccnc(C[S+]([O-])c2nc3ccccc3[nH]2)c1C (stereo not shown)	92.3 % of DMSO
COc1cc(OC)c(C(=O)CCCCN2CCC3(CC2)NC(=O)NC3=O)cc1NS(=O)(=O)c1ccc(C(F)(F)F)cc1	107 % of DMSO
Cc1oncc1C(=O)Nc1ccc(C(F)(F)F)cc1	119 % of DMSO and 131 % of DMSO
C[C@H]1C[C@H]2[C@@H]3CCC4=CC(=O)C=C[C@]4(C)[C@@]3(F)[C@@H](O)C[C@]2(C)[C@@]1(O)C(=O)CO	79.7 % of DMSO

Block 2 — technique: competition with immobilised ligand; concentration: 1 µM
Compound: CC1=C(C#N)[C@@H](c2ccc3[nH]nc(C)c3c2)C(C#N)=C(c2ccc(Cl)cc2)N1
target	test	remaining binding
CAMK1G (Homo sapiens, UniProt Q96NX5)	cell-free assay	100%
MUSK (Homo sapiens, UniProt O15146)	cell-free assay	100%
PIK3CA (Homo sapiens, UniProt P42336, M1043I)	cell-free assay	25.2%
TESK1 (Homo sapiens, UniProt Q15569)	cell-free assay	100%
TRPM6 (Homo sapiens, UniProt Q9BX84)	cell-free assay	100%
KIT (Homo sapiens, UniProt P10721, V559D)	cell-free assay	100%
Tyrosine-protein kinase ABL1, non-phosphorylated (ABL1, Homo sapiens, UniProt P00519, F317I)	binding	100%
EPHA4 (Homo sapiens, UniProt P54764)	cell-free assay	96.4%
CAMK2G (Homo sapiens, UniProt Q13555)	cell-free assay	100%
NEK2 (Homo sapiens, UniProt P51955)	cell-free assay	100%
MAP3K12 (Homo sapiens, UniProt Q12852)	cell-free assay	72.2%
PRKAA1 (Homo sapiens, UniProt Q13131)	cell-free assay	100%
GRK1 (Homo sapiens, UniProt Q15835)	cell-free assay	65.5%
NUAK1 (Homo sapiens, UniProt O60285)	cell-free assay	100%
LRRK2 (Homo sapiens, UniProt Q5S007)	cell-free assay	91.7%

Block 3 — Structure (SMILES): CNc1cc2c(Nc3cccc(Br)c3)ncnc2cn1; effect on: enzyme activity; action: inhibitor; concentration: 0.5 µM; reference: control
target	remaining activity
HIPK2 (Homo sapiens, UniProt Q9H2X6)	98.4%
MAPKAPK3 (Homo sapiens, UniProt Q16644)	99.2%
STK17A (Homo sapiens, UniProt Q9UEE5)	98.4%
EPHB4 (Homo sapiens, UniProt P54760)	99.6%
EPHB1 (Homo sapiens, UniProt P54762)	90.2%
RPS6KA6 (Homo sapiens, UniProt Q9UK32)	81.8%
PHKG1 (Homo sapiens, UniProt Q16816)	91.4%
TSSK2 (Homo sapiens, UniProt Q96PF2)	87.2%
MAP4K4 (Homo sapiens, UniProt O95819)	86.9%
Cyclin-dependent kinase 6, with cyclin D3 (CDK6, Homo sapiens, UniProt Q00534)	90.8%
AXL (Homo sapiens, UniProt P30530)	98.6%
DYRK3 (Homo sapiens, UniProt O43781)	84.4%
PRKACG (Homo sapiens, UniProt P22612)	115%

Block 4 — technique: PRP-column chromatography
SMILES	average log k' (20-100)
Cc1ncsc1-c1ccc(CNC(=O)[C@@H]2C[C@@H](O)CN2C(=O)[C@@H](NC(=O)CCCCCNC(=O)C2CCCCC2)C(C)(C)C)cc1	1.05
COCC(=O)NCCCCCC(=O)N[C@H](C(=O)N1C[C@H](O)C[C@H]1C(=O)NCc1ccc(-c2scnc2C)cc1)C(C)(C)C	0.881
Cc1ncsc1-c1ccc(CNC(=O)[C@@H]2C[C@@H](O)CN2C(=O)[C@@H](NC(=O)CCCCCOC(=O)CC23C[C@H]4C[C@@H](C2)C[C@@H](C3)C4)C(C)(C)C)cc1	1.32
CCCC(=O)OCCCCCC(=O)N[C@H](C(=O)N1C[C@H](O)C[C@H]1C(=O)NCc1ccc(-c2scnc2C)cc1)C(C)(C)C	1.11
CCCC(=O)NCCCCCC(=O)N[C@H](C(=O)N1C[C@H](O)C[C@H]1C(=O)NCc1ccc(-c2scnc2C)cc1)C(C)(C)C	0.944

A few entries again (block 2):
target	test	remaining binding
CAMK1G (Homo sapiens, UniProt Q96NX5)	cell-free assay	100%
LRRK2 (Homo sapiens, UniProt Q5S007)	cell-free assay	91.7%
Tyrosine-protein kinase ABL1, non-phosphorylated (ABL1, Homo sapiens, UniProt P00519, F317I)	binding	100%
